Results collected from several papers.
Compare with care: the assays were run in different laboratories. “And” joins repeats or separate records; there may be more than shown.
RPS6KA5 C-terminal kinase domain: Ribosomal protein S6 kinase alpha-5, C-terminal kinase domain (RPS6KA5, Homo sapiens, UniProt O75582)
RPS6KA5: Ribosomal protein S6 kinase alpha-5 (RPS6KA5, Homo sapiens, UniProt O75582)
RPS6KA5 N-terminal kinase domain: Ribosomal protein S6 kinase alpha-5, N-terminal kinase domain (RPS6KA5, Homo sapiens, UniProt O75582)

Structure (SMILES)	target	assay	setting	how to read	measurement	value
Cc1ccc(-c2c(/C=C(\C#N)C(=O)NC(C)C)n(CCCO)c3ncnc(N)c23)cc1	RPS6KA5 C-terminal kinase domain	binding, competition with immobilised ligand	1 µM		remaining binding	81%
CN1CCN(Cc2ccc(-c3ccc(CO[C@H]4CCC[C@@H]4NC(=O)c4cc(-c5cnn(C)c5)cnc4N)cc3)cc2)CC1	RPS6KA5	enzyme activity, inhibitor	0.1 µM		inhibition	1%
Cc1cnc2nc1Nc1cccc(c1)COC/C=C/COCc1cc(ccc1OCCN1CCOCC1)N2	RPS6KA5 C-terminal kinase domain	binding, competition with immobilised ligand	0.1 µM		remaining binding	91%
CC(C)=CC1OC(C)(C)C2C=C3C(=O)C(Cl)=CC(O)C3C3C(O)C4OC4C(=O)C132 (stereo not shown)	RPS6KA5 C-terminal kinase domain	binder, KINOMEscan competition binding	10 µM	baseline: DMSO control	remaining binding	81%
COCC12C(=O)NC3C4(C(OC)CC1O)C1CC5(O)C(OC)C(O)C(OC(C)=O)(C1C5OC(=O)c1ccccc1)C3(O)C(OC)C24 (stereo not shown)	RPS6KA5	kinase activity, inhibitor, ProQinase kinase profiling	25 µM	baseline: control	remaining activity	86% and 100%
NC(=O)C[C@H]1CCc2sc3ncnc(O[C@H]4CC[C@H](N5CCOCC5)CC4)c3c21	RPS6KA5	enzyme activity, inhibitor	10 µM		inhibition	2%
CN1CC[C@@H](COc2cnc(C#N)cc2-c2ccn3nc(NC(=O)C4CC4)cc3c2)C1	RPS6KA5	enzyme activity, inhibitor	1 µM		inhibition	9%
Cc1cccc(O[C@H]2CCC[C@@H](C(C)CNCc3ccncc3)C2)c1 (relative stereo)	RPS6KA5	enzyme activity, inhibitor	1 µM		inhibition	6%
Cc1ccc(C)c(-c2ccc3nc(NC(=O)C4CCCCC4)nn3c2)c1	RPS6KA5	enzyme activity, Dundee kinase panel	10 µM		remaining activity	68%
C=CC(=O)N1CCCC(n2c(=O)c3ncccc3n(Cc3ccc(Oc4ccccc4)cc3)c2=O)C1 (stereo not shown)	RPS6KA5 C-terminal kinase domain	binding, competition with immobilised ligand	1 µM		remaining binding	88%
COc1c(Cl)cccc1Nc1c(-c2ccncc2C#C[C@@]2(C)CCCN2C(=O)/C=C/CN(C)C)[nH]c2c1C(=O)NCC2	RPS6KA5 C-terminal kinase domain	binding, competition with immobilised ligand	3 µM		remaining binding	95%
COc1ccc(C(=O)/C=C/c2ccccc2-c2c[nH]c3ccc(C#N)cc23)c(O)c1	RPS6KA5	enzyme activity, inhibitor	20 µM		inhibition	17%
CCn1cc(C(=O)O)c(=O)c2c(N)c(F)c(NC3CCCCC3)cc21	RPS6KA5	kinase activity	0.1 µM, together with: ATP at Km		inhibition	12.6%
CNC1C[S+]2CC[S+]3CC[S+](C1)[Ru-4]321([N]=C=S)[n]2c3ccc(OC)cc3c3c4c(c5cc(F)c[n+]1c5c32)C(=O)NC4=O (stereo not shown)	RPS6KA5 N-terminal kinase domain	KinomeScan	0.1 µM	baseline: untreated	remaining binding	46%
Cc1cccc(-c2ccc3nc(NC(=O)C4CCOCC4)nn3c2)c1	RPS6KA5	enzyme activity, Dundee kinase panel	10 µM		remaining activity	56%
c1ccc2c(Nc3cc(C4CCC4)[nH]n3)nc(Nc3ccc4nc[nH]c4c3)nc2c1	RPS6KA5	enzyme activity, inhibitor	0.25 µM		remaining activity	21%
Nc1ncc(-c2cc(-c3cnn(CC(F)(F)F)c3)ncc2F)nc1C(=O)NC1CNCC(F)C1 (stereo not shown)	RPS6KA5	enzyme activity	1 µM	baseline: DMSO control	remaining activity	98.5%
O=C=[N][Ru-4]123([n]4c5ccc(O)cc5c5c6c(c7cc(F)c[n+]1c7c54)C(=O)NC6=O)[S+]1CC[S+]2CC[S+]3CC1 (stereo not shown)	RPS6KA5	enzyme activity	100 nM, human enzyme, together with: 10 µM ATP	baseline: untreated	remaining activity	15%
COc1cc(Nc2nccc(-c3cnn4nc(OC)ccc34)n2)cc(C(F)(F)F)c1	RPS6KA5 C-terminal kinase domain	binding, competition with immobilised ligand	1 µM		remaining binding	96%
C=CC(=O)N1Cc2nc(-c3cc(-c4cc(Cl)cnc4Cl)c(F)cc3F)n(-c3ccncn3)c2C1	RPS6KA5	cell-free assay, inhibitor	1 µM		inhibition	-0.8%
C=CC(=O)Nc1cccc(-c2cnc3[nH]cc(C(=O)NC(C)(C)C)c3n2)c1	RPS6KA5	enzyme activity, inhibitor	0.1 µM		inhibition	7%
CCN1CCN(Cc2ccc(C(=O)Nc3ccc(C)c(NCc4cnc5[nH]ccc5c4OC)c3)cc2C(F)(F)F)CC1	RPS6KA5 N-terminal kinase domain	binding, competition with immobilised ligand	1 µM		remaining binding	69%
COc1cc(Nc2nc(C)cc(-c3cnn4nc(OC)ccc34)n2)cc(C(F)(F)F)c1	RPS6KA5 C-terminal kinase domain	binding, competition with immobilised ligand	1 µM		remaining binding	95%
Nc1ncc2c(n1)-c1c([nH]c3ccc(C4=CCOCC4)cc13)CCC2	RPS6KA5 N-terminal kinase domain	binding, competition with immobilised ligand	1 µM		remaining binding	100%
CNC(=O)C1CCN(c2cc(C)c(F)cc2NC(=O)c2ccc(-c3cc(O)ccc3C)c(C)c2)CC1	RPS6KA5 C-terminal kinase domain	binding, competition with immobilised ligand	1 µM		remaining binding	100%

Repeated from above:
Structure (SMILES)	target	assay	setting	how to read	measurement	value
CNC1C[S+]2CC[S+]3CC[S+](C1)[Ru-4]321([N]=C=S)[n]2c3ccc(OC)cc3c3c4c(c5cc(F)c[n+]1c5c32)C(=O)NC4=O (stereo not shown)	RPS6KA5 N-terminal kinase domain	KinomeScan	0.1 µM	baseline: untreated	remaining binding	46%
Cc1ccc(-c2c(/C=C(\C#N)C(=O)NC(C)C)n(CCCO)c3ncnc(N)c23)cc1	RPS6KA5 C-terminal kinase domain	binding, competition with immobilised ligand	1 µM		remaining binding	81%
